{"data": "Results from different studies", "note": "Each numbered part is a random draw from the data of one study; scales do not carry over between parts. Values joined by “and” are separate records of one study, mostly repeats; a detail may differ.", "chain of UniProt P07948 (whole entry, looked up)": "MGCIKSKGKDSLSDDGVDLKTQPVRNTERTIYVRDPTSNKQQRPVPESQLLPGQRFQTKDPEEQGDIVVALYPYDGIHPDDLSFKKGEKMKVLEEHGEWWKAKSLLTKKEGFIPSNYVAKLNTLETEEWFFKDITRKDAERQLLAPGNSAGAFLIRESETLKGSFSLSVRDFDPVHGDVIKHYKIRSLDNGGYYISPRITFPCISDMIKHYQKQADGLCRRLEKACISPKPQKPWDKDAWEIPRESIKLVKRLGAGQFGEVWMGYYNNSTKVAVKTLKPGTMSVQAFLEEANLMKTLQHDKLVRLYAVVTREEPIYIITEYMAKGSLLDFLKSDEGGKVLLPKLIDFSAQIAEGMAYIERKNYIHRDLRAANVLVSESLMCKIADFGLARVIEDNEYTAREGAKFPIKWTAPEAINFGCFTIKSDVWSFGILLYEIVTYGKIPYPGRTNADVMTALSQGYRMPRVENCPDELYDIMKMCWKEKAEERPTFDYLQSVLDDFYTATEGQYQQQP", "chain of UniProt P50613 (whole entry, looked up)": "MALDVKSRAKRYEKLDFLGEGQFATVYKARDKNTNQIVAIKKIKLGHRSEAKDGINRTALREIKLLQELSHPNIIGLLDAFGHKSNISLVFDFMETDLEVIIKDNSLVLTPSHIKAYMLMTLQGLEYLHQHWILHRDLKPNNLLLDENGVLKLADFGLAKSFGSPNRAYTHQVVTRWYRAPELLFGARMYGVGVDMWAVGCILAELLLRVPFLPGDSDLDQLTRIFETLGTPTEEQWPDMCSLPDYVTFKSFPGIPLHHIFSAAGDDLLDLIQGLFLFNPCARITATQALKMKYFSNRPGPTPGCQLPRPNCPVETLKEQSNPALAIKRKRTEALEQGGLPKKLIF", "chain of UniProt Q9UBF8 (whole entry, looked up)": "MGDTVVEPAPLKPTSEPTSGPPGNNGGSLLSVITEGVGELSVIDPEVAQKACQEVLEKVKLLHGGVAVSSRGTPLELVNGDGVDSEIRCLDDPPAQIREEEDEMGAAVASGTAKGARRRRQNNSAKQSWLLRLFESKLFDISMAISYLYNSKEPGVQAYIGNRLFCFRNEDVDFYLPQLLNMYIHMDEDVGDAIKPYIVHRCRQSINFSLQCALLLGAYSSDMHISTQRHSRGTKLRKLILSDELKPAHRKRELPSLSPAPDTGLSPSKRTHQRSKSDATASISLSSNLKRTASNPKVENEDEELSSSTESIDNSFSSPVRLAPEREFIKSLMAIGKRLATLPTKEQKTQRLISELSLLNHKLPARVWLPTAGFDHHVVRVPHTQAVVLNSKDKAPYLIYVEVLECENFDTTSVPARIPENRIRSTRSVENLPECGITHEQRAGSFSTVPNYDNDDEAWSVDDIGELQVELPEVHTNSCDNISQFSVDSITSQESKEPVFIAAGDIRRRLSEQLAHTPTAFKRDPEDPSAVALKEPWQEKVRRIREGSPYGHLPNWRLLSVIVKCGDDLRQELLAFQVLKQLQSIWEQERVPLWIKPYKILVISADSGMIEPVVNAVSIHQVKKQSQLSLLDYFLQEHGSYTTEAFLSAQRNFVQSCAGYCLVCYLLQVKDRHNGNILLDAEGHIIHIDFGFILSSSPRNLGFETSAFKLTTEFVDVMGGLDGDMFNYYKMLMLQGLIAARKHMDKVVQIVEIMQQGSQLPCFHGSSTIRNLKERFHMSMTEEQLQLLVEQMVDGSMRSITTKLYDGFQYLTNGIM", "chain of UniProt P43403 (whole entry, looked up)": "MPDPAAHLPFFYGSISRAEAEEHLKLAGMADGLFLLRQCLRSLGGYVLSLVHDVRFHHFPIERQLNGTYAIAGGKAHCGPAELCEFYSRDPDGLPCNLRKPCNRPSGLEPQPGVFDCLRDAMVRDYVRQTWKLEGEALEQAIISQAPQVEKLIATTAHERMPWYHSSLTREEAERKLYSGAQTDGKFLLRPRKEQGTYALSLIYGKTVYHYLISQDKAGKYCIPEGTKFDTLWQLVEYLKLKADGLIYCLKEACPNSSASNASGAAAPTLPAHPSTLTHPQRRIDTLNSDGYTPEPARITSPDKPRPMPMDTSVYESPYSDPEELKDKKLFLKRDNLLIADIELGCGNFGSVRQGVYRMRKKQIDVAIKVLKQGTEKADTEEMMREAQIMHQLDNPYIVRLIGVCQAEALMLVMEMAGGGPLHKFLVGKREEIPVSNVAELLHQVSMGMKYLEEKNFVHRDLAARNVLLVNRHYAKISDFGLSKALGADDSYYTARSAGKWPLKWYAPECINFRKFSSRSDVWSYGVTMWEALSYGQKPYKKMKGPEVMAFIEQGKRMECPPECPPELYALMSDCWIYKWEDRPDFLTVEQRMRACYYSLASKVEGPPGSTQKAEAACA"}
{"data": "Block 1", "Compound": "CCN1/C(=C/C=C2\\CCCC(/C=C/C3=[N+](CC)c4ccccc4C3(C)C)=C2NCCCCCCCCN2CCC(Nc3nc4ccccc4n3Cc3ccc(F)cc3)CC2)C(C)(C)c2ccccc21", "cell line": "U-87 MG", "concentration": "concentration not given", "baseline": "DMSO"}
{"assay": "refers to: NRG1 mRNA", "log2 fold change": 1.5}
{"assay": "refers to: B3GNT9 mRNA", "log2 fold change": -0.847}
{"assay": "refers to: CMBL mRNA", "log2 fold change": -1.02}
{"assay": "refers to: LCTL mRNA", "log2 fold change": -3.06}
{"assay": "refers to: STEAP3 mRNA", "log2 fold change": -1.19}
{"assay": "refers to: NBPF12 mRNA", "log2 fold change": 0.913}
{"assay": "refers to: CPLX3 mRNA", "log2 fold change": 4.53}
{"assay": "refers to: PLCE1 mRNA", "log2 fold change": -1.51}
{"assay": "refers to: CBX5 mRNA", "log2 fold change": -1.31}
{"assay": "refers to: CLDN1 mRNA", "log2 fold change": 2.78}
{"assay": "refers to: DDIT4 mRNA", "log2 fold change": 1.42}
{"assay": "refers to: CCN4 mRNA", "log2 fold change": -3.88}
{"assay": "refers to: RIPK4 mRNA", "log2 fold change": -1.36}
{"assay": "refers to: C18orf25 mRNA", "log2 fold change": 0.801}
{"assay": "refers to: KNL1 mRNA", "log2 fold change": -2.28}
{"assay": "refers to: BLVRA mRNA", "log2 fold change": -0.915}
{"data": "Block 2", "SMILES": "CCN(CC)CC(=O)N1CCN(c2nc(NCc3nc4cc(Cl)c(Cl)cc4[nH]3)c3ncn(CC)c3n2)CC1", "effect on": "enzyme activity", "mode": "inhibitor", "technique": "ADP detection", "CDK2": "Cyclin-dependent kinase 2 (CDK2, Homo sapiens, UniProt P24941)", "CDK13": "Cyclin-dependent kinase 13 (CDK13, Homo sapiens, UniProt Q14004)", "CDK9": "Cyclin-dependent kinase 9 (CDK9, Homo sapiens, UniProt P50750)", "chain of UniProt P50750 (whole entry, looked up)": "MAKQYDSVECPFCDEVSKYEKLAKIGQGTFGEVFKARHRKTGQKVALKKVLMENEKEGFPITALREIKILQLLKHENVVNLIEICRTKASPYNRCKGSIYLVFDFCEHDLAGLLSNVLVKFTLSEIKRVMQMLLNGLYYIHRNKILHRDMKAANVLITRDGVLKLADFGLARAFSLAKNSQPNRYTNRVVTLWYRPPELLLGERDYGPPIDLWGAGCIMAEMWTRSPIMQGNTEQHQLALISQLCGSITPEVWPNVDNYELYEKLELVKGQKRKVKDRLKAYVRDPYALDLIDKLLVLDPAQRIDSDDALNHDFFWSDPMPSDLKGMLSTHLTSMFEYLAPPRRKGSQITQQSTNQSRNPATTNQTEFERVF", "chain of UniProt Q14004 (whole entry, looked up)": "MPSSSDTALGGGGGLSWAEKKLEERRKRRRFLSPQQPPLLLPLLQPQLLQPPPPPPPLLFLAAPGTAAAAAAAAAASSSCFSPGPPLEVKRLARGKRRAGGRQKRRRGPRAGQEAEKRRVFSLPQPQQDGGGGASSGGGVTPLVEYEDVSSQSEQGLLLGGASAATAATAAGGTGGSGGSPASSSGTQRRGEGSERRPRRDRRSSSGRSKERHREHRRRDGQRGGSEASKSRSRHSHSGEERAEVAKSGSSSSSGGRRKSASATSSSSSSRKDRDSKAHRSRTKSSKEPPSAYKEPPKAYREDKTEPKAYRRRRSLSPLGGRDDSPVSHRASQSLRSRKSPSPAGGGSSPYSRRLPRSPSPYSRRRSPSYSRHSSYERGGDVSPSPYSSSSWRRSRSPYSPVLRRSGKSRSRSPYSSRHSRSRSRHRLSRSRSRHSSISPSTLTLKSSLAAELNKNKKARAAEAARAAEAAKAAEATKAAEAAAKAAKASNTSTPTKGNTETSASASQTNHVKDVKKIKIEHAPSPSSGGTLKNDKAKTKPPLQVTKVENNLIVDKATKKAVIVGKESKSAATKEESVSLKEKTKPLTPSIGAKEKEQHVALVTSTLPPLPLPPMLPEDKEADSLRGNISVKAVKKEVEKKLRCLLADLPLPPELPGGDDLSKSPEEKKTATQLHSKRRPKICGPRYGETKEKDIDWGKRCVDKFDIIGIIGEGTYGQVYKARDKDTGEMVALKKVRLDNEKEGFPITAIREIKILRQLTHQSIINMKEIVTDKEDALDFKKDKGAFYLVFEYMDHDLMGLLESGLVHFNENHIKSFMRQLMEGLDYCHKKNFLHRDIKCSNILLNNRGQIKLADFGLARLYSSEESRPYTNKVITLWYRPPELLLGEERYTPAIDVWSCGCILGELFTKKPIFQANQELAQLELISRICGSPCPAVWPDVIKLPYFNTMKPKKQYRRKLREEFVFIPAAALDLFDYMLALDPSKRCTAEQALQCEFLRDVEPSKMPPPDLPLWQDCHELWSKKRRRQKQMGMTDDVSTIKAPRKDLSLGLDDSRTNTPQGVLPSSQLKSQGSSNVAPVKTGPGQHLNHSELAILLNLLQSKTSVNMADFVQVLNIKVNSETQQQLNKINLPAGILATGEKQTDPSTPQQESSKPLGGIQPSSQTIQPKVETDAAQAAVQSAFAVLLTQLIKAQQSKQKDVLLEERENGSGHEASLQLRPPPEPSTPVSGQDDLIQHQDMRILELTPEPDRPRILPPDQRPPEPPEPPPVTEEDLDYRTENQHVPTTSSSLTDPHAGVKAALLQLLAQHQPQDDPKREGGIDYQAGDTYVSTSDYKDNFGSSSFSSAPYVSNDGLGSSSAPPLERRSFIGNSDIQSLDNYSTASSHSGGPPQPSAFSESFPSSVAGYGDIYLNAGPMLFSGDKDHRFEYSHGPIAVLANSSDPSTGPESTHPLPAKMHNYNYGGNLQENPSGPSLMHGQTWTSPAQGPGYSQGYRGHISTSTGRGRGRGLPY"}
{"target": "CDK2", "setting": "13.7 nM", "inhibition [%]": 5}
{"target": "CDK13", "setting": "1.111 µM", "inhibition [%]": 60.4}
{"target": "CDK9", "setting": "0.3704 µM", "inhibition [%]": 11.7}
{"target": "CDK2", "setting": "0.1235 µM", "inhibition [%]": 1.1}
{"target": "CDK13", "setting": "13.7 nM", "inhibition [%]": -4.1}
{"target": "CDK9", "setting": "0.1235 µM", "inhibition [%]": 3}
{"target": "Cyclin-dependent kinase 7 (CDK7, Homo sapiens, UniProt P50613)", "setting": "3.333 µM", "inhibition [%]": 64.5}
{"target": "CDK2", "setting": "1.111 µM", "inhibition [%]": -5.1}
{"data": "Block 3", "SMILES": "CNc1ncc2cc(-c3cc(OC)cc(OC)c3Cl)c(=O)n(CCc3ccc(NC(=O)C(C#N)=CC(C)(C)N4CCOCC4)cc3)c2n1", "effect on": "kinase activity", "concentration": "1 µM"}
{"target": "Tyrosine-protein kinase ZAP-70 (ZAP70, Homo sapiens, UniProt P43403)", "inhibition [%]": 0}
{"target": "Tyrosine-protein kinase Lyn, isoform B (LYN, Homo sapiens, UniProt P07948)", "inhibition [%]": 21}
{"target": "Phosphatidylinositol 4-kinase beta (PI4KB, Homo sapiens, UniProt Q9UBF8)", "inhibition [%]": -2}
{"data": "Block 4", "SMILES": "Cc1ccc(O)c(C)c1-c1cnc2[nH]c(-c3cnc(N4CCC5(CC4)CC(N4CCN(c6ccc(N[C@H]7CCC(=O)NC7=O)cc6F)CC4)CO5)nc3)cc2c1C#N (single isomer, unassigned)", "PKMYT1": "Membrane-associated tyrosine- and threonine-specific cdc2-inhibitory kinase (PKMYT1, Homo sapiens, UniProt Q99640)", "chain of UniProt Q99640 (whole entry, looked up)": "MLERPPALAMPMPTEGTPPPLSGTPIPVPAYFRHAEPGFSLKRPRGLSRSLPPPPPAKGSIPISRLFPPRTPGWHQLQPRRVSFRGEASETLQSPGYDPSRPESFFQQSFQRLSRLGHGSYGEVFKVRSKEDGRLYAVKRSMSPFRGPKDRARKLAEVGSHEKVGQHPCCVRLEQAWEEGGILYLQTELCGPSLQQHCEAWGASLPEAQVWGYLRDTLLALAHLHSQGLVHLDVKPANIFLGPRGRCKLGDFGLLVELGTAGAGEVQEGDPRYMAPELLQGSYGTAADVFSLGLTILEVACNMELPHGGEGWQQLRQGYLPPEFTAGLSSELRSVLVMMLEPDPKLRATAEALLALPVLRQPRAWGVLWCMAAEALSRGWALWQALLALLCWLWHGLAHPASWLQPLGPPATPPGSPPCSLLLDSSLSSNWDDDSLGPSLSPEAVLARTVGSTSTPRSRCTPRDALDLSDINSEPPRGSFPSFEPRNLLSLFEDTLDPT"}
{"target or system": "PKMYT1", "assay": "binding, HTRF", "setting": "4.57 nM", "inhibition": "54.4% and 49.5%"}
{"target or system": "PKMYT1", "setting": "370.37 nM", "inhibition": "97.3% and 99.8%"}
{"target or system": "PKMYT1", "setting": "10000 nM", "inhibition": "101% and 99.5%"}
{"target or system": "PKMYT1", "assay": "enzyme activity, inhibitor", "setting": "3.333 µM", "inhibition": "99.1%"}
{"target or system": "PKMYT1", "setting": "1.524 nM", "inhibition": "23.9% and 26.8%"}
{"target or system": "NCI-H1568", "assay": "cell proliferation", "setting": "370.37 nM", "inhibition": "14.2% and 17.4%"}
{"target or system": "RAF proto-oncogene serine/threonine-protein kinase (RAF1, Homo sapiens, UniProt P04049, Y340D/Y341D)", "assay": "kinase activity, inhibitor, ADP-Glo", "setting": "10 µM", "inhibition": "66.7%"}
{"target or system": "HCC1569", "assay": "automated capillary immunoblot, refers to: CDK1 phospho-Thr14", "setting": "1 nM, 2 h", "inhibition": "-5.37%"}
{"target or system": "RKO", "assay": "cell proliferation", "setting": "1.524 nM", "inhibition": "0.41% and 5.88%"}
{"target or system": "HCC1569", "assay": "automated immunoblotting, refers to: CDK1 phospho-Thr14", "setting": "concentration not given, 4 h after washout", "inhibition": "56%"}
{"note": "For quick reference, copied from above (block 4):"}
{"target or system": "PKMYT1", "setting": "1.524 nM", "inhibition": "23.9% and 26.8%"}
{"target or system": "NCI-H1568", "assay": "cell proliferation", "setting": "370.37 nM", "inhibition": "14.2% and 17.4%"}
{"target or system": "RAF proto-oncogene serine/threonine-protein kinase (RAF1, Homo sapiens, UniProt P04049, Y340D/Y341D)", "assay": "kinase activity, inhibitor, ADP-Glo", "setting": "10 µM", "inhibition": "66.7%"}
{"target or system": "HCC1569", "assay": "automated capillary immunoblot, refers to: CDK1 phospho-Thr14", "setting": "1 nM, 2 h", "inhibition": "-5.37%"}
{"target or system": "RKO", "assay": "cell proliferation", "setting": "1.524 nM", "inhibition": "0.41% and 5.88%"}
{"target or system": "HCC1569", "assay": "automated immunoblotting, refers to: CDK1 phospho-Thr14", "setting": "concentration not given, 4 h after washout", "inhibition": "56%"}
